Published values gathered from unrelated publications.
Protocols differ between the studies behind these lines. Values joined by “and” are separate records of one study, mostly repeats; a detail may differ. ± gives the spread as reported.
Chain of UniProt Q8R2Y0 (whole entry, looked up): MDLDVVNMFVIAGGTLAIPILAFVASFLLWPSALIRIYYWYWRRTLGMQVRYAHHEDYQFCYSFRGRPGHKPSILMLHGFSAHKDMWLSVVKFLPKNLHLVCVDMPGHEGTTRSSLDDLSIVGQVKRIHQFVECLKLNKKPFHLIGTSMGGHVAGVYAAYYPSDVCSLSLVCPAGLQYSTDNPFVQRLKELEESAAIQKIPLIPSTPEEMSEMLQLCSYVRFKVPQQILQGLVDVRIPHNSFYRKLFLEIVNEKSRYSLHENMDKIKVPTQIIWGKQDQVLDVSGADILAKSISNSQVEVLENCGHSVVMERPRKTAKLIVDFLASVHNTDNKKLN
Chain of UniProt Q9UH17 (whole entry, looked up): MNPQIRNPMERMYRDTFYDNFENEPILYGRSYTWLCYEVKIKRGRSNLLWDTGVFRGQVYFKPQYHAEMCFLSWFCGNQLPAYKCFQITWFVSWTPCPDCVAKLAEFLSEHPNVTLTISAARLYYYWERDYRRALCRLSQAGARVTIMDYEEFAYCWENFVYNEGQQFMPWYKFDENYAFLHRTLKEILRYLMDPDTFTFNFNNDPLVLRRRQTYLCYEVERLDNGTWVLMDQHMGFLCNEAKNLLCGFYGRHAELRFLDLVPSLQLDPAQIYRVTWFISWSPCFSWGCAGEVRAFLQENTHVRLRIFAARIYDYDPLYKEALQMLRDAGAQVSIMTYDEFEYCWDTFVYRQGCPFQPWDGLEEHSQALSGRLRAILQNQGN
Chain of UniProt O94804 (whole entry, looked up): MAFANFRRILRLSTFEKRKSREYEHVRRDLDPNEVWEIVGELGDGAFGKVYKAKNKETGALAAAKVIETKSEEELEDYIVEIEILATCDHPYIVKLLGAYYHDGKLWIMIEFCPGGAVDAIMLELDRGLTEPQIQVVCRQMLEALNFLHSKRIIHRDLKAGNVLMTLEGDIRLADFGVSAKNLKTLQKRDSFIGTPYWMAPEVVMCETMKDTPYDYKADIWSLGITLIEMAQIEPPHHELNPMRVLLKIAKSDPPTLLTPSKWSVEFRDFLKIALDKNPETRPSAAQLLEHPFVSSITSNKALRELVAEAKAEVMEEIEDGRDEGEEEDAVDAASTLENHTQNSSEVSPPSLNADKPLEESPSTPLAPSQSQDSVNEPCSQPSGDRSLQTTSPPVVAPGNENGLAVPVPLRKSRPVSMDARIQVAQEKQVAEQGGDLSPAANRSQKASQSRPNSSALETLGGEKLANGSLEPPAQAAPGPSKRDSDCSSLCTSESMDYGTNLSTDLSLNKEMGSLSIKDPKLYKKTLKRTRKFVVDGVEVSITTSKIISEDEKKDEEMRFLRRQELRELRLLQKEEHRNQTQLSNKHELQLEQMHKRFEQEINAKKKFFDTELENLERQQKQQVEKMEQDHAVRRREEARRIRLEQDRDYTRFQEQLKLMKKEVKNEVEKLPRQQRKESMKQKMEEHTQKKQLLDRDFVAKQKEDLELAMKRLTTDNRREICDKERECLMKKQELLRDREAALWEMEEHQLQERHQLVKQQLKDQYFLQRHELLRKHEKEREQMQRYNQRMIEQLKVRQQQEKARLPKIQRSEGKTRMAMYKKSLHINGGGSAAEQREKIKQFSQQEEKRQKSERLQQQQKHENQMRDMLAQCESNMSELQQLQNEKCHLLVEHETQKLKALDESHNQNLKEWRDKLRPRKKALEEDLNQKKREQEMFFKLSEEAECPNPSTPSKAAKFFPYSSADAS
Chain of UniProt O15146 (whole entry, looked up): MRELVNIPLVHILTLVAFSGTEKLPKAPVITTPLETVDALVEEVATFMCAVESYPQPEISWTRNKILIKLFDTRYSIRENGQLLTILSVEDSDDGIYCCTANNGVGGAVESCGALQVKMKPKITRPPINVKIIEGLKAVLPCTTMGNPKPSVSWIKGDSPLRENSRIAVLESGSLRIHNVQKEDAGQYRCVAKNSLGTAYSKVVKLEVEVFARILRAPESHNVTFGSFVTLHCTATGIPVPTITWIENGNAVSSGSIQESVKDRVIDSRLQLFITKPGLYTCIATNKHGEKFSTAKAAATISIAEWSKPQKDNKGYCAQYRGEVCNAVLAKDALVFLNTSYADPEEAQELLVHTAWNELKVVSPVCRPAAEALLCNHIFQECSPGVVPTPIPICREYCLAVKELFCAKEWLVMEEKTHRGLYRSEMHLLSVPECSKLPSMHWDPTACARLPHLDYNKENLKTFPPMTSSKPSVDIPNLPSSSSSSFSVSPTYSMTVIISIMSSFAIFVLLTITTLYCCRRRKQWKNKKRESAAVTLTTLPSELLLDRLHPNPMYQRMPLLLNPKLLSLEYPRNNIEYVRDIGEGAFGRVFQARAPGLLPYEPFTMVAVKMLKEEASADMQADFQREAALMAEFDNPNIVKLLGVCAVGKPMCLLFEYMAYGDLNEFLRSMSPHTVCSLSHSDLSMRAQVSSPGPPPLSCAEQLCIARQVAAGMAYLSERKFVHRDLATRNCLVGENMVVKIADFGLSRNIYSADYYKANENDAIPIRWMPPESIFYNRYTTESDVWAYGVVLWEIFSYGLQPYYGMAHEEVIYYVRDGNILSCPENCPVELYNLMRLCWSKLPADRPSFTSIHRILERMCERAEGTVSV
Chain of UniProt P35372 (whole entry, looked up): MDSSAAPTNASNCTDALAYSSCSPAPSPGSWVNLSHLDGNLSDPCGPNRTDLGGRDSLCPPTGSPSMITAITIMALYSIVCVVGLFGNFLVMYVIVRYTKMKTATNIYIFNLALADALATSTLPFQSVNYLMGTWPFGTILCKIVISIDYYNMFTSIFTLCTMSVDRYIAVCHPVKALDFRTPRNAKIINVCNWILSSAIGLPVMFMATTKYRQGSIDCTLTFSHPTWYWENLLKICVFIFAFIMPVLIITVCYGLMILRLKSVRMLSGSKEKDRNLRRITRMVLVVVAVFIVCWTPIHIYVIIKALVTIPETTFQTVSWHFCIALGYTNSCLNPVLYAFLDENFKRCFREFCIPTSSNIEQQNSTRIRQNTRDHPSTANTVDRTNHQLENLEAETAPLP
Chain of UniProt O75747 (whole entry, looked up): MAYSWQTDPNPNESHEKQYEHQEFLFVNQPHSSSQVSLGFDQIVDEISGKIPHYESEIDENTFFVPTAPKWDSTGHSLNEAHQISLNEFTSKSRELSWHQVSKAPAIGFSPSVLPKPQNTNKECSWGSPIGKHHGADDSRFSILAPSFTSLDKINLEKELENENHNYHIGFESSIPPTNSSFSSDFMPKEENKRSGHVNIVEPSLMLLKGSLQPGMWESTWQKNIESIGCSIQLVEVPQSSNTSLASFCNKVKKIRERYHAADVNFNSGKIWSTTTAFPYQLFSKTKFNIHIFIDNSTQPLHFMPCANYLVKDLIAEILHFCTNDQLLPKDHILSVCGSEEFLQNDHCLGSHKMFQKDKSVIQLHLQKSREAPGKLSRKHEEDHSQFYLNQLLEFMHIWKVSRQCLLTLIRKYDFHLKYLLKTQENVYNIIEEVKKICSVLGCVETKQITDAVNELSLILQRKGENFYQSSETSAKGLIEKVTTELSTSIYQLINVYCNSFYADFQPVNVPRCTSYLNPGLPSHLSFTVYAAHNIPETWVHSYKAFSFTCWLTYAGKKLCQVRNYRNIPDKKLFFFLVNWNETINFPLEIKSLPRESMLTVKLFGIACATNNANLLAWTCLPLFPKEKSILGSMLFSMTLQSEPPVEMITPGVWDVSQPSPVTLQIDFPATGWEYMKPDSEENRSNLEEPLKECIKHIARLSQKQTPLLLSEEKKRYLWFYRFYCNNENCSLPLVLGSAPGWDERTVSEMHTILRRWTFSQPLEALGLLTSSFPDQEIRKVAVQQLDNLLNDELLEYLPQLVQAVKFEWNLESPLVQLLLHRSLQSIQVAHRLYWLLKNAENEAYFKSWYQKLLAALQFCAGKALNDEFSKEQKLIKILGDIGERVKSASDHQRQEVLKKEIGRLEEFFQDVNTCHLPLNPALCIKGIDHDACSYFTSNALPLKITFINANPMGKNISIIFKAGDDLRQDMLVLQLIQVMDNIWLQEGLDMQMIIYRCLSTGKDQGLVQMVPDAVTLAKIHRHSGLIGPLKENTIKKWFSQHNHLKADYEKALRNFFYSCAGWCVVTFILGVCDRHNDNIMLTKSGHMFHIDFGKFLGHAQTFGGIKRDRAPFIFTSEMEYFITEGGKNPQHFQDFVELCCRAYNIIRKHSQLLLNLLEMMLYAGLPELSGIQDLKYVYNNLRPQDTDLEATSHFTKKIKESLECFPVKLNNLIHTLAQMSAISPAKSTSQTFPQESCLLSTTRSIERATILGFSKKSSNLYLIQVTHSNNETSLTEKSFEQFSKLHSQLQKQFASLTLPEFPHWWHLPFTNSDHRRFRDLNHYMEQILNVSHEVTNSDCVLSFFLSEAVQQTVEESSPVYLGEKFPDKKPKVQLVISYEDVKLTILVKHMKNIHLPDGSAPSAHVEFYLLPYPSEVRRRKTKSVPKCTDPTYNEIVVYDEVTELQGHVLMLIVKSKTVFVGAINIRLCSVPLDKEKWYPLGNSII
Chain of UniProt P34972 (whole entry, looked up): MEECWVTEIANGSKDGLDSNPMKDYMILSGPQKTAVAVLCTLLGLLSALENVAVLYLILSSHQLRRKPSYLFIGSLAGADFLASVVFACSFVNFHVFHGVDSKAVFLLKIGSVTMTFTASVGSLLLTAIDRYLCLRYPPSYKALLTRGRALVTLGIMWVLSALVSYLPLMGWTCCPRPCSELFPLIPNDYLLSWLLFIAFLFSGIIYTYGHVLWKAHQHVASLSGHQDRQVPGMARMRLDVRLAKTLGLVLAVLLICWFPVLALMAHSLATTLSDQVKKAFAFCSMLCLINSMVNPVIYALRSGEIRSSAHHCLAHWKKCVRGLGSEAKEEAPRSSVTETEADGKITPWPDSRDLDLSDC

O=C1NC(=O)c2c1c1cc(F)c[n+]3c1c1c2c2cc(O)ccc2[n]1[Ru-4]312([N]=C=S)[S+]3CC[S+]1CC[S+]2CC3 (stereo not shown)
remaining activity (STK10 (Homo sapiens, UniProt O94804); enzyme activity; 100 nM, human enzyme, added: 10 µM ATP; relative to: untreated): 86%

CN(C)[C@H](CNC(=O)/C=C/c1cccc2ccccc12)Cc1ccc(O)cc1
Emax (Mu-type opioid receptor, with Gi3 (OPRM1, Homo sapiens, UniProt P35372); receptor activation, agonist): 67 ± 7%

COC(=O)[C@@H](NC(=O)c1nn(Cc2ccc(F)cc2)c2cc(OCCCCNC(=N)N)ccc12)C(C)(C)C
Gi GTP turnover minimum (CNR2 (Homo sapiens, UniProt P34972); GTPase; relative to: FUB): 56%

Clc1cc(Cl)c2c(c1)[C@H](NCCCNc1nc3ncccc3[nH]1)CCO2
selectivity ratio (MARS2 (Homo sapiens, UniProt Q96GW9); enzyme activity; relative to: human IC50 over T. brucei IC50): > 1.8

C=CC(=O)Nc1cc(-c2ccc(C(=O)N3CCCC(O)(CC)C3)cc2)ccc1F (stereo not shown)
unmodified protein (DNA dC->dU-editing enzyme APOBEC-3B, C-terminal domain (Homo sapiens, UniProt Q9UH17); covalent adduct, intact protein MS; 3 h, 1-fold, 25 µM): 100% and 95%

CCc1nnc(-c2c(OC)cc(-c3cnc4cc(-c5cnn(C)c5)ccn34)cc2OC)o1
remaining binding (HTR3A (Homo sapiens, UniProt P46098); antagonist radioligand, radioligand binding; 10 µM, SafetyScreen44 5-HT3 replicate 2; lower = stronger displacement): 114%

CC(C)[C@H]1NC(=O)C[C@H]2/C=C/CCSSC[C@@H](NC1=O)C(=O)N[C@H](Cc1cccc3ccccc13)C(=O)NCC(=O)O2
inhibition (MUSK (Homo sapiens, UniProt O15146); enzyme activity, inhibitor; 10 µM): -2.9%

CS(C)(=O)=Nc1ccc(-c2ccc(-c3nc4cc(O[C@@H]5CO[C@H]6[C@@H]5OC[C@H]6O)[nH]c4cc3F)cc2)cc1
inhibition (PIK3C2G (Homo sapiens, UniProt O75747); enzyme activity, inhibitor; 10 µM): 6%

COCC1CCCCN1C(=O)n1cc(C(O)(c2ccccc2)c2ccccc2)nn1 (stereo not shown)
SILAC activity ratio (Abhd6 (Mus musculus, UniProt Q8R2Y0); probe labelling, inhibitor, competitive ABPP-SILAC; mouse T cells; concentration not given, 4 h, single peptide; relative to: treated over DMSO cells, lower = stronger inhibition): 1.1 and 0.8 and 0.74 and 1.16

COc1cc(OC)c2c(=O)cc(-c3cc(C)c(OCCCN4CCN(C)CC4)c(C)c3)oc2c1
selectivity ratio (Bromodomain-containing protein 4, BD1 (BRD4, Homo sapiens, UniProt O60885); binding, TR-FRET; relative to: other BET bromodomains over BRD4): > 10 fold

COc1ccccc1-c1n[nH]c2nc(N[C@H]3CC[C@H](NS(=O)(=O)CC(C)C)CC3)ncc12
relative captured amount (protein kinase LINJ.27.0100; bead competition pull-down; Leishmania extract; 10 µM; relative to: vehicle): 0.58

CN(C)[C@H]1C[C@@]23CC[C@@]4(O2)C(=CC[C@]2(C)[C@@H](c5ccc6ccncc6c5)CC[C@H]24)C=C3[C@@H](O)[C@@H]1O
inhibition (RIPK3 (Homo sapiens, UniProt Q9Y572); ATP probe labelling, inhibitor, KiNativ profiling; 0.1 µM): 3.4%

CCn1nc(Cl)c2c1-c1cnc(N)c(c1)O[C@H](C)c1cc(F)ccc1-c1nn(C)cc1C2
selectivity ratio (EPHA5 (Homo sapiens, UniProt P54756); kinase activity, inhibitor; relative to: IC50 EPHA5 over IC50 ALK): 224 fold

A few entries again:
Clc1cc(Cl)c2c(c1)[C@H](NCCCNc1nc3ncccc3[nH]1)CCO2
selectivity ratio (MARS2 (Homo sapiens, UniProt Q96GW9); enzyme activity; relative to: human IC50 over T. brucei IC50): > 1.8
